Results from different studies.
Each numbered part is a random draw from the data of one study; scales do not carry over between parts. Changes are numbered by the printed parent chain.
UniProt Q9Y6M4, sequence (whole entry, looked up): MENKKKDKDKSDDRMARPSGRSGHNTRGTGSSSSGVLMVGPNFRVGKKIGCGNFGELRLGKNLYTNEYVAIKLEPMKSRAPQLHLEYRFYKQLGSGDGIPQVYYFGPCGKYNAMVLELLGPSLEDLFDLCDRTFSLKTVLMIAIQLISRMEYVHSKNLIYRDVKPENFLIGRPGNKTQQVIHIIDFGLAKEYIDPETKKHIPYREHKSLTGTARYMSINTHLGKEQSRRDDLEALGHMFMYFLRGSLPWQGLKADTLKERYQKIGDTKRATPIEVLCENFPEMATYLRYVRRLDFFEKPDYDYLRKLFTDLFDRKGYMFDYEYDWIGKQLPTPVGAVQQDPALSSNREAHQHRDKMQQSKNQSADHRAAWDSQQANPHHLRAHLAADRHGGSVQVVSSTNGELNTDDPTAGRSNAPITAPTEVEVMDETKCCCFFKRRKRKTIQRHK
UniProt P52333, sequence (whole entry, looked up): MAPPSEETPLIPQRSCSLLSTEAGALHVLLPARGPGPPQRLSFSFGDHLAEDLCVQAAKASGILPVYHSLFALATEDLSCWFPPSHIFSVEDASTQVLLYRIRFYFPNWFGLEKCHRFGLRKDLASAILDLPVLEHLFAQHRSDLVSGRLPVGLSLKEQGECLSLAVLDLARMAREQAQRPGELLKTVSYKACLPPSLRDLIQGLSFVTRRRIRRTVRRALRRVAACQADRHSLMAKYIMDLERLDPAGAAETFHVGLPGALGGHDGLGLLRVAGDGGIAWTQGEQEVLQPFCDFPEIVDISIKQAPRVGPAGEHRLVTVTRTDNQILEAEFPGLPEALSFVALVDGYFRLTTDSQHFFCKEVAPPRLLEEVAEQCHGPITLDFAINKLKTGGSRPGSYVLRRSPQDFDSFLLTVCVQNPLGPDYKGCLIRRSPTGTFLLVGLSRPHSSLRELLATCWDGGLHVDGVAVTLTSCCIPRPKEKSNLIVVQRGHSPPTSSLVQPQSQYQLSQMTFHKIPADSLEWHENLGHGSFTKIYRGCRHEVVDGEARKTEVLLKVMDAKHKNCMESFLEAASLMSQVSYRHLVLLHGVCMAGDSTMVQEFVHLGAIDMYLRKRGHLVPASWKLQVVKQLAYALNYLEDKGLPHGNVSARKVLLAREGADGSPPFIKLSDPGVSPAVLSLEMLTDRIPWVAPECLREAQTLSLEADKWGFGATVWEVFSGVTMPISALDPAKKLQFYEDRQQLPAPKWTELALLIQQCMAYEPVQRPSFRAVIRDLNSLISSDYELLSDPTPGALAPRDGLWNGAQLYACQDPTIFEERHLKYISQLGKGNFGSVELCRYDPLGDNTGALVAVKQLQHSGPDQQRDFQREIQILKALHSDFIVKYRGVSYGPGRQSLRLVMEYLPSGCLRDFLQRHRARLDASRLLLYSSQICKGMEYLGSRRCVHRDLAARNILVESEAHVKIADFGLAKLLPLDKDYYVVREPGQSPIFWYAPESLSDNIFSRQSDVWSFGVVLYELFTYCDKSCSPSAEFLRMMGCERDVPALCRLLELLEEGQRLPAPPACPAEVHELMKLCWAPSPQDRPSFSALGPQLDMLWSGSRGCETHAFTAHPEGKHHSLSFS
UniProt Q9UL54, sequence (whole entry, looked up): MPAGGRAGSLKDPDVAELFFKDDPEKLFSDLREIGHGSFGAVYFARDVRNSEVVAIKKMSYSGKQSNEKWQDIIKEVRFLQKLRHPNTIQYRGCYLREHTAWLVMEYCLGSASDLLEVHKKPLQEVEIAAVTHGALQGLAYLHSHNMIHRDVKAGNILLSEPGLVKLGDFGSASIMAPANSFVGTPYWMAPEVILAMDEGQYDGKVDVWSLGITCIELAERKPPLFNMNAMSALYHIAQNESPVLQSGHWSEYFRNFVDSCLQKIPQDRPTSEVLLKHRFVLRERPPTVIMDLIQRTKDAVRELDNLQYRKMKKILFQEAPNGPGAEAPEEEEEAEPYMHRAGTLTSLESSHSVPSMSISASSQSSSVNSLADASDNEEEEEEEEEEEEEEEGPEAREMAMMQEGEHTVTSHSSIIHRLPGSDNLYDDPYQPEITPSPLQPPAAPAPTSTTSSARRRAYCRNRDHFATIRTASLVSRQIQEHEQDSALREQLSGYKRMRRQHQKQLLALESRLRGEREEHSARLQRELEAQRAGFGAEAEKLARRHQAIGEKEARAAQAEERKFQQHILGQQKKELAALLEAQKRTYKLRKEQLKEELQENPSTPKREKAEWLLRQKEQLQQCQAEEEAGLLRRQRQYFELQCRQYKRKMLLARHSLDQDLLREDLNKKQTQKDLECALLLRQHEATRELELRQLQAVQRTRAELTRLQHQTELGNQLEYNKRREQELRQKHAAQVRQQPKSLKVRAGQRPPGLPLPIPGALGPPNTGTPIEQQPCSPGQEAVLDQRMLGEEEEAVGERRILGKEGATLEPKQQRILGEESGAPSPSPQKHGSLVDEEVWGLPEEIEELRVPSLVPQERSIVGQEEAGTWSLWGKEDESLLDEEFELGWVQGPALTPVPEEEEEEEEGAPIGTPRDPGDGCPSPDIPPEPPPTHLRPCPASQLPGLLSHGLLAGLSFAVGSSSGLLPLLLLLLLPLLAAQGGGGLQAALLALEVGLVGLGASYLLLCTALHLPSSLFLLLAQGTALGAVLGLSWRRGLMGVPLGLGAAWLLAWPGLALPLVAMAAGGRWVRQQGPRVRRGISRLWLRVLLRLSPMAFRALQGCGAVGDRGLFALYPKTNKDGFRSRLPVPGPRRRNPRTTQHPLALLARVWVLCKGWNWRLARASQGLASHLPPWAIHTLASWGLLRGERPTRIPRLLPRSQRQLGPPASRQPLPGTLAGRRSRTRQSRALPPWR
UniProt Q12866, sequence (whole entry, looked up): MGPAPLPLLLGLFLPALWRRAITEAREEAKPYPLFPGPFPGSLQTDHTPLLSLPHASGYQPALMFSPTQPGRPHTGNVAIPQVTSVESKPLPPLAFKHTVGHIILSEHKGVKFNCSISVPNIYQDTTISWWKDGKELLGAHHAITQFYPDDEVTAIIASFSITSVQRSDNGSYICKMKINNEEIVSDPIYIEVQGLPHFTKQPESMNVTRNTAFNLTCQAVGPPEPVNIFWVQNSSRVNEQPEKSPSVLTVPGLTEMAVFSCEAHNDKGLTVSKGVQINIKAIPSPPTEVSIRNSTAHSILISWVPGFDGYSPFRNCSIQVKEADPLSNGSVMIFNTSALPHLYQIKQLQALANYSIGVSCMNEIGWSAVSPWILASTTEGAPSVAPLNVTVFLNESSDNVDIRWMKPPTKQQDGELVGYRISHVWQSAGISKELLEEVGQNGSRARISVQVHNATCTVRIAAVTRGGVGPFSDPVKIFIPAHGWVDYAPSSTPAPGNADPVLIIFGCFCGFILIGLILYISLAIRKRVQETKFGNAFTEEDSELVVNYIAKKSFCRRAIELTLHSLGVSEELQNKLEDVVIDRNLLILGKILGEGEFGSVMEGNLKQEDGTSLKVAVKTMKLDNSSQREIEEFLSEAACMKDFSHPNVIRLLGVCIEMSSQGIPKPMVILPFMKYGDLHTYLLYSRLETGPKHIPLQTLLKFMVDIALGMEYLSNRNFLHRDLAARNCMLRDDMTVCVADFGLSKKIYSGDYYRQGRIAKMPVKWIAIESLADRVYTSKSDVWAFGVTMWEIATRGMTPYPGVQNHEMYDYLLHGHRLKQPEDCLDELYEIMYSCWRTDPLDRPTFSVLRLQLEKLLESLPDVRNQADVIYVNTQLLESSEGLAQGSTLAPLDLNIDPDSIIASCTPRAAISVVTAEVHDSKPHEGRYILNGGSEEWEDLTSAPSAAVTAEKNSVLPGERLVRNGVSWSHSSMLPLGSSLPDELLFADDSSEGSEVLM
UniProt Q8N752, sequence (whole entry, looked up): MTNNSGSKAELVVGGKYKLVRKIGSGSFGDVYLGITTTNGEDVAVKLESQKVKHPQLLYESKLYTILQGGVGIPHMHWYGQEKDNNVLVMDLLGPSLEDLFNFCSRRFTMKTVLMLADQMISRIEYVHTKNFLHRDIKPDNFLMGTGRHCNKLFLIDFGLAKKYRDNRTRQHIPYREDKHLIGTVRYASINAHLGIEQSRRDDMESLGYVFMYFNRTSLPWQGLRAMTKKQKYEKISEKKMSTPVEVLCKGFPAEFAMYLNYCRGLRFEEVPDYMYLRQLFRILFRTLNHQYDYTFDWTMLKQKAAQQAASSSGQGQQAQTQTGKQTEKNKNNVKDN
UniProt P36896, sequence (whole entry, looked up): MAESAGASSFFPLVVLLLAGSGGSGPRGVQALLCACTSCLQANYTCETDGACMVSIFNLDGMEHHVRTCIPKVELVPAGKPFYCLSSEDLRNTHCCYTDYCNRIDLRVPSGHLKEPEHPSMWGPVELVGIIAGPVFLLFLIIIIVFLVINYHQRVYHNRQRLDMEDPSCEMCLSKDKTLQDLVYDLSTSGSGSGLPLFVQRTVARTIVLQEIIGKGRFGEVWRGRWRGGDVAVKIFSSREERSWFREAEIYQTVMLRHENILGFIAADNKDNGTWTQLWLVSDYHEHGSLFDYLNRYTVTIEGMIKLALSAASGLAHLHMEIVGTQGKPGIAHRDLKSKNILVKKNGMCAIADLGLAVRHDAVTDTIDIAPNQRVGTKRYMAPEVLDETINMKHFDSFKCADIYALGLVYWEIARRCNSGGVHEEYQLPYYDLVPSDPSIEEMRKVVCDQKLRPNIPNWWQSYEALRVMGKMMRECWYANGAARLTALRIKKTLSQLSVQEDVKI

Block 1 — target: CCNE1, cyclin fold, Cln2 fusion (human); method: yeast growth competition, sequencing; matrix: yeast; setting: strong parent motif; relative to: not given; direction: higher = stronger binding
Starting sequence: GMNC docking peptide (human); KNAKRNLSSEFAN
| Change | normalised enrichment score |
| --- | --- |
| KNAKRNLSSEKAN [F11K] | 0.0519 |
| KNHKRNLSSEFAN [A3H] | 0.429 |
| KNAKHNLSSEFAN [R5H] | 0.292 |
| KNAKRYLSSEFAN [N6Y] | -0.604 |
| KNAKRNLSSENAN [F11N] | -0.299 |
| KNAKRNLSSEFFN [A12F] | 0.876 |
| KNAKRNLSSFFAN [E10F] | 0.725 |
| KNAKINLSSEFAN [R5I] | 0.211 |

Block 2 — tested at: 1 µM
Structure (SMILES): CS(=O)(=O)NCC[C@H](NC(=O)c1cncc2c1cnn2-c1ccc(F)cc1)c1ccnc(S(C)(=O)=O)c1
| target | observed | method | remaining binding [%] |
| --- | --- | --- | --- |
| AAK1 (Homo sapiens, UniProt Q2M2I8) | binding | – | 100 |
| TAOK3 (Homo sapiens, UniProt Q9H2K8) | cell-free assay | competition with immobilised ligand | 80 |
| CSNK1A1L (Homo sapiens, UniProt Q8N752) | cell-free assay | competition with immobilised ligand | 94 |
| SRPK1 (Homo sapiens, UniProt Q96SB4) | cell-free assay | competition with immobilised ligand | 83 |
| FLT3 (Homo sapiens, UniProt P36888, D835H) | cell-free assay | competition with immobilised ligand | 100 |

Block 3 — method: RNA Bind-n-Seq; form: RNA; matrix: in vitro; tested at: 90 pmol; setting: 4-mer, random 30-nt RNA, single round; relative to: input library; direction: higher = stronger binding
Target: Eukaryotic initiation factor 4A-I (EIF4A1, Homo sapiens, UniProt P60842, residues 1-406, full length assumed)
UniProt P60842, sequence (whole entry, looked up): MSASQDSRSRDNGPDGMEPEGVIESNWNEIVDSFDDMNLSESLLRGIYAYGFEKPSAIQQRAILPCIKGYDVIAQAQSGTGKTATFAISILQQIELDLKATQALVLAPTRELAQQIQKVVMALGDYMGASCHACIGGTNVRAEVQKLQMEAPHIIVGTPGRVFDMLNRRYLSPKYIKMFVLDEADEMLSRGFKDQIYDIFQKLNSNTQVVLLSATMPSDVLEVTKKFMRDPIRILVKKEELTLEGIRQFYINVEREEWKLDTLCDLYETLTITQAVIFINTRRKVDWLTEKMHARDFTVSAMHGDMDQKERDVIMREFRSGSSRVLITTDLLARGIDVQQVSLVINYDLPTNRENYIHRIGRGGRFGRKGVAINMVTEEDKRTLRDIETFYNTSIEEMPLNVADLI
With: 3 µM iPr-DMDA-PatA, 2 mM ADP, 2 mM phosphate
| Sequence | 4-mer enrichment |
| --- | --- |
| CGCA | 0.848 fold |
| AGAU | 1.38 fold |
| CCUU | 0.895 fold |
| CAGU | 0.943 fold |
| AGGG | 0.719 fold |
| GUAA | 1.18 fold |
| GGCU | 0.713 fold |
| UCCG | 0.918 fold |

Block 4 — SMILES: CC(C)n1cnc2c(Nc3cccc(Cl)c3)nc(NCCO)nc21; observed: enzyme activity; action: inhibitor; tested at: 0.5 µM; relative to: control
| target | remaining activity [%] |
| --- | --- |
| MERTK (Homo sapiens, UniProt Q12866) | 89.7 |
| ARAF (Homo sapiens, UniProt P10398) | 107 |
| TAOK2 (Homo sapiens, UniProt Q9UL54) | 97.2 |
| ULK2 (Homo sapiens, UniProt Q8IYT8) | 89 |
| FRK (Homo sapiens, UniProt P42685) | 94.2 |
| MAP2K2 (Homo sapiens, UniProt P36507) | 97.6 |
| TBK1 (Homo sapiens, UniProt Q9UHD2) | 89.2 |
| WEE1 (Homo sapiens, UniProt P30291) | 98.9 |
| GRK7 (Homo sapiens, UniProt Q8WTQ7) | 88.7 |
| EPHA3 (Homo sapiens, UniProt P29320) | 90.3 |
| CSNK1G3 (Homo sapiens, UniProt Q9Y6M4) | 6.89 |
| JAK3 (Homo sapiens, UniProt P52333) | 24.7 |
| ACVR1B (Homo sapiens, UniProt P36896) | 101 |

Excerpt of the above (block 4):
| target | remaining activity [%] |
| --- | --- |
| TBK1 (Homo sapiens, UniProt Q9UHD2) | 89.2 |
| WEE1 (Homo sapiens, UniProt P30291) | 98.9 |
| GRK7 (Homo sapiens, UniProt Q8WTQ7) | 88.7 |
| EPHA3 (Homo sapiens, UniProt P29320) | 90.3 |
